Measured values pooled from the literature.
Compare with care: the assays were run in different laboratories. ± gives the spread as reported.
CatSper channel complex: CatSper channel complex (Homo sapiens, UniProt Q7RTX7+Q86XQ3+Q8NEC5+Q96P56)
Chain of UniProt Q7RTX7 (whole entry, looked up): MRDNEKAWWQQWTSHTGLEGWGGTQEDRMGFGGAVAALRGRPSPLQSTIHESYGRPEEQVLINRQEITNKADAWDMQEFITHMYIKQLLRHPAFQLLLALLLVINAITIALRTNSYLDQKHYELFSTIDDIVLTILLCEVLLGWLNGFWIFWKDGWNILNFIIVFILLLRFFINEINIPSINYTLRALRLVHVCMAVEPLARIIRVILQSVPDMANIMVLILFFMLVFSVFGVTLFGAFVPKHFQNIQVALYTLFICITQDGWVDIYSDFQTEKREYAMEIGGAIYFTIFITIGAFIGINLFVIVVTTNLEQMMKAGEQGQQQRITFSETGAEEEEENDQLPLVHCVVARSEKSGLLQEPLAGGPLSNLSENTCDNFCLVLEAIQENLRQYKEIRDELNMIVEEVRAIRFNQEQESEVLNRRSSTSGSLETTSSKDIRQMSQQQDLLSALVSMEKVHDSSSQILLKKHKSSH
Chain of UniProt Q96P56 (whole entry, looked up): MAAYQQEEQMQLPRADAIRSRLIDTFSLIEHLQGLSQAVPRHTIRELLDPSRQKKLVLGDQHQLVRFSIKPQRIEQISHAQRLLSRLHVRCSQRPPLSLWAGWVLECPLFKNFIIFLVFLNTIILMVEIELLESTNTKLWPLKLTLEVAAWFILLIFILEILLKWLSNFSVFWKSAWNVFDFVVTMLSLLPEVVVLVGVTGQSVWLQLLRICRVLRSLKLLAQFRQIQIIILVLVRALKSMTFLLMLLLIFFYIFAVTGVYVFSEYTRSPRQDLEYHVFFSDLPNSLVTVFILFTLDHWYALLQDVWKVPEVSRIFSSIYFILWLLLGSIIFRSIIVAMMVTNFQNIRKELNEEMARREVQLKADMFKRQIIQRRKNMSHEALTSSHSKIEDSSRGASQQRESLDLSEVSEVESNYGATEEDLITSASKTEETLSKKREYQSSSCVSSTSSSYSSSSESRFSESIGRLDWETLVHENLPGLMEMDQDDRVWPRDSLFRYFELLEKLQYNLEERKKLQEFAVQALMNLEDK
Chain of UniProt Q8NEC5 (whole entry, looked up): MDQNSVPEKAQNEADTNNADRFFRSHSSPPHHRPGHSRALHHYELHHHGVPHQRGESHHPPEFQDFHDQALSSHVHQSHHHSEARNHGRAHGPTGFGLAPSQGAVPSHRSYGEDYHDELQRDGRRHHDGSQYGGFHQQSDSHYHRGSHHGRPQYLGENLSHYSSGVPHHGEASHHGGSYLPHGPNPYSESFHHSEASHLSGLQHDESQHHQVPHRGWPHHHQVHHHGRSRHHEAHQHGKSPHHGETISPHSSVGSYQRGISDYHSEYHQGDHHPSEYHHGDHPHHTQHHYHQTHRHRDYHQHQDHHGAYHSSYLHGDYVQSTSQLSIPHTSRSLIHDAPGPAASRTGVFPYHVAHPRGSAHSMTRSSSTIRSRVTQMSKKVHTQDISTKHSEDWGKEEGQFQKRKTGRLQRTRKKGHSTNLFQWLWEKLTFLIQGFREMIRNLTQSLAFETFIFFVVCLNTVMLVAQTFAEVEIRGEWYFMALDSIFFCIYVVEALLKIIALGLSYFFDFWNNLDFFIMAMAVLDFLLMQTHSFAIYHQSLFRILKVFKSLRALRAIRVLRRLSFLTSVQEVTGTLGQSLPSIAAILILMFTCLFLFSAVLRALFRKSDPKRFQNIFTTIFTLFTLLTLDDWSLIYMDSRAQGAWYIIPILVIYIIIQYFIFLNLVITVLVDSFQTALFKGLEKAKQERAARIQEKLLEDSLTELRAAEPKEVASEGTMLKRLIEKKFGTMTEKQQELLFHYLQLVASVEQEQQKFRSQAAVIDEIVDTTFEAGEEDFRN
Chain of UniProt Q86XQ3 (whole entry, looked up): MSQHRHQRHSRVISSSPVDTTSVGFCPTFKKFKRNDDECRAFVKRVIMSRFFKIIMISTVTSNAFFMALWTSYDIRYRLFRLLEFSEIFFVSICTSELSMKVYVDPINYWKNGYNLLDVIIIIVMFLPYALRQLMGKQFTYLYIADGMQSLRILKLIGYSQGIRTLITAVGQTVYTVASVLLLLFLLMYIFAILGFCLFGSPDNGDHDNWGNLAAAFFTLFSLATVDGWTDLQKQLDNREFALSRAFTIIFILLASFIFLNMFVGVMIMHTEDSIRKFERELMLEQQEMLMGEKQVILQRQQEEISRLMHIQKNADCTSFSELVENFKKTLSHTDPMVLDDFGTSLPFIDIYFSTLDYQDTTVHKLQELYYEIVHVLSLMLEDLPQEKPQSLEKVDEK
Chain of UniProt P06401 (whole entry, looked up): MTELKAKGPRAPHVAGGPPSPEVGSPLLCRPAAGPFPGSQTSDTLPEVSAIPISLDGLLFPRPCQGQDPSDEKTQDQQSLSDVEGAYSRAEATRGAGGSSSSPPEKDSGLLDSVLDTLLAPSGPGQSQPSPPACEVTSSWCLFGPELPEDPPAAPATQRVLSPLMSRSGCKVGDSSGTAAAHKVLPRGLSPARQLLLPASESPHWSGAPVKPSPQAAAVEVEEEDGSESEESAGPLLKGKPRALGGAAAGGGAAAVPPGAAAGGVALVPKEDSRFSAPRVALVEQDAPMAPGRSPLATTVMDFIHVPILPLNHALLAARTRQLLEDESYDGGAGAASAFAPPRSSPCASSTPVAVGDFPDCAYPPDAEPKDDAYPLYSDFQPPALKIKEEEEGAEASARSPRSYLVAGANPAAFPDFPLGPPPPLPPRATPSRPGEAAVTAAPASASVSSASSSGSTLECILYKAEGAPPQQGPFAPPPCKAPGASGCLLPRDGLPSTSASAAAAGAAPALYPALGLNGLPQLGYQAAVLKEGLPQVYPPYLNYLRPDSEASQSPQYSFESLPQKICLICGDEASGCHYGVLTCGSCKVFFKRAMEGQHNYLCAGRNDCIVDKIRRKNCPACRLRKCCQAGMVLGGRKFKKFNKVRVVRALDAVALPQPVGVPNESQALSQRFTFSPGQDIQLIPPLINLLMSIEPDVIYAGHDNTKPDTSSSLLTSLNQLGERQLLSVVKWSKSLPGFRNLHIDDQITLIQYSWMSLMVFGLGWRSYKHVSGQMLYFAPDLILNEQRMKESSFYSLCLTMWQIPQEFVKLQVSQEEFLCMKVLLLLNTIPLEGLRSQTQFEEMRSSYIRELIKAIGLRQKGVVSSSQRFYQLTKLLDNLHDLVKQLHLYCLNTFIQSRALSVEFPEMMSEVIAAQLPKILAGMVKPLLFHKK
Chain of UniProt O43614 (whole entry, looked up): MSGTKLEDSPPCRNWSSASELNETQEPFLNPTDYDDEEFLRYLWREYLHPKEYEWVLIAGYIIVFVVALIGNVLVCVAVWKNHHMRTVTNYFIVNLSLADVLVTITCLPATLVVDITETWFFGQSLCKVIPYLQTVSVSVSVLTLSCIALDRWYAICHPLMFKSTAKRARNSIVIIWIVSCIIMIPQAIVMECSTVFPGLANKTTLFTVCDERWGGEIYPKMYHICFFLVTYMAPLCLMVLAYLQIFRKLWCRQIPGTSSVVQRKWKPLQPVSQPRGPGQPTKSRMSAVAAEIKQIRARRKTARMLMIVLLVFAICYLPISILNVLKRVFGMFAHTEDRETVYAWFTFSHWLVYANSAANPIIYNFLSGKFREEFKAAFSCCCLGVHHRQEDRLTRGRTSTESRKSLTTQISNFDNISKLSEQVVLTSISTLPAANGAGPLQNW
Chain of UniProt O75762 (whole entry, looked up): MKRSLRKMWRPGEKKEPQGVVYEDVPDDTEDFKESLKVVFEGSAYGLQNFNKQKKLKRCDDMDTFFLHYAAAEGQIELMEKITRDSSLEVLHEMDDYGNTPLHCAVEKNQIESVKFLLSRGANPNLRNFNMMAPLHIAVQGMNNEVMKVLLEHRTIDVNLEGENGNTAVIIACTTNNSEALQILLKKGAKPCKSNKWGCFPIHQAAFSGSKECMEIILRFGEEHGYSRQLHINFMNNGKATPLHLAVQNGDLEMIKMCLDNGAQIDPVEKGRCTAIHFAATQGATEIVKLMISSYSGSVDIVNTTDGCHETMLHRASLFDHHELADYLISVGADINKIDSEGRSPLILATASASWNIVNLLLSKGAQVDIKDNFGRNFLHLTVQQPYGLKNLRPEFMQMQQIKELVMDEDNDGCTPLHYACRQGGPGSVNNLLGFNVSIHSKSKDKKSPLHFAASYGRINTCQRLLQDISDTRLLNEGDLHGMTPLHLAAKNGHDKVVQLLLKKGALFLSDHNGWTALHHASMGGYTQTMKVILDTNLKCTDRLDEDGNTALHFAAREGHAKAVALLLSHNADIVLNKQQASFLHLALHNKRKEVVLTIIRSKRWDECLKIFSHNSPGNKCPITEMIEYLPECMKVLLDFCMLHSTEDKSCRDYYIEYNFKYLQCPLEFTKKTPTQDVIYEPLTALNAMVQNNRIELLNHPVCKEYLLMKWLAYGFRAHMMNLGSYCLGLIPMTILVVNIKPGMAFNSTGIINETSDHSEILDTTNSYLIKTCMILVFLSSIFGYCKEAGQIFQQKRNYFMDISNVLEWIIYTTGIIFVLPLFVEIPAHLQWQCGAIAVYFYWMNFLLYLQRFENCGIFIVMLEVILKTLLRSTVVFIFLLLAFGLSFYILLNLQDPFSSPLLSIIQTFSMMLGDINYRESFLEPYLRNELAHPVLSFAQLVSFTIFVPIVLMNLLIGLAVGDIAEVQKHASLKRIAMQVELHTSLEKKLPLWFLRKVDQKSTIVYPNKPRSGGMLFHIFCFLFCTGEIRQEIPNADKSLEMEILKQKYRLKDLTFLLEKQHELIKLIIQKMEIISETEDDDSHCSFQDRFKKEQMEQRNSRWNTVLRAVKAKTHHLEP
Chain of UniProt P63086 (whole entry, looked up): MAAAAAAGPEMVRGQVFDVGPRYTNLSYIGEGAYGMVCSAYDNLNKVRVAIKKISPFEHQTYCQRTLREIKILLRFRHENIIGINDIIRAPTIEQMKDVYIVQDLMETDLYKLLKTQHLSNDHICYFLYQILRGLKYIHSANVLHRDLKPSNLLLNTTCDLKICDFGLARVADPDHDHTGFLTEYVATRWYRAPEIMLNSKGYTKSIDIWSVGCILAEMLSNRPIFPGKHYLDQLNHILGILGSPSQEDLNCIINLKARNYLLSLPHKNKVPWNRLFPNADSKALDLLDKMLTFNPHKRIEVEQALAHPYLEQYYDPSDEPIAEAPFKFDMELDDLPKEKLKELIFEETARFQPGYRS

CCCC[C@H](C)/C=C(C)/C=C/C(=O)O — IC50 (Transient receptor potential cation channel subfamily A member 1 (TRPA1, Homo sapiens, UniProt O75762); calcium signal, antagonist, fluorescence): 1.47 µM
CC(C)(C)CCN1C[C@@H]2[C@@H](CNC(=O)c3cc(Cl)cc(Cl)c3)[C@@H]2C1 — IC50 (CatSper channel complex; calcium influx, inhibitor; human sperm; added: PGE1 10 nM (EC80)): 13.5 µM
CC(C)C[C@H](NC(=O)[C@H](CC(N)=O)NC(=O)[C@H](CC(C)C)NC(=O)[C@@H](NC(=O)[C@@H](NC(=O)[C@@H]1CCCN1C(=O)[C@H](CCCNC(=N)N)NC(=O)[C@H](CCCCN)NC(=O)[C@@H]1CCCN1C(=O)[C@H](CCCNC(=N)N)NC(=O)[C@@H]1CCCN1C(=O)[C@@H]1CCCN1C(=O)[C@H](CCCNC(=N)N)NC(=O)[C@H](CCCNC(=N)N)NC(=O)[C@H](CCCNC(=N)N)NC(=O)[C@H](CCC(N)=O)NC(=O)[C@H](CCCNC(=N)N)NC(=O)[C@H](CCCNC(=N)N)NC(=O)[C@H](CCCCN)NC(=O)[C@H](CCCCN)NC(=O)[C@H](CCCNC(=N)N)NC(=O)CN)[C@@H](C)O)[C@@H](C)O)C(=O)N[C@@H](Cc1ccccc1)C(=O)N1CCC[C@H]1C(=O)N[C@@H](CCC(N)=O)C(=O)N[C@H](C(=O)N1CCC[C@H]1C(=O)N[C@@H](CCCNC(=N)N)C(=O)N[C@@H](CO)C(=O)N[C@@H](CCC(N)=O)C(=O)N[C@@H](CC(=O)O)C(=O)N[C@H](C(N)=O)[C@@H](C)O)C(C)C — IC50 (Mitogen-activated protein kinase 1 (Mapk1, Rattus norvegicus, UniProt P63086); inhibitor): 179 ± 18 µM
N=C(N)NCCC[C@@H]1NC(=O)[C@H](Cc2c[nH]c3ccccc23)NC(=O)[C@H](CCCNC(=N)N)NC(=O)[C@H](Cc2c[nH]c3ccccc23)NC(=O)[C@H](CCCNC(=N)N)NC(=O)[C@H](Cc2c[nH]c3ccccc23)NC(=O)[C@H](CCCNC(=N)N)NC(=O)[C@H](Cc2c[nH]c3ccccc23)NC(=O)[C@H](CCCNC(=N)N)NC(=O)[C@H](Cc2c[nH]c3ccccc23)NC(=O)[C@H](CCCNC(=N)N)NC(=O)[C@H](Cc2c[nH]c3ccccc23)NC(=O)[C@H](CCCNC(=N)N)NC(=O)[C@H](Cc2c[nH]c3ccccc23)NC1=O — IC50 (RAC-alpha serine/threonine-protein kinase (AKT1, Homo sapiens, UniProt P31749); enzyme activity, inhibitor): 0.76 µM
CC12CC3CC(C)(C1)CC(NC(=O)Nc1ccc(C(=O)N4CCCC(C(=O)NC5CC5)C4)cc1)(C3)C2 (centres unmarked) — IC50 (Bifunctional epoxide hydrolase 2 (EPHX2, Homo sapiens, UniProt P34913); enzyme activity, inhibitor): 0.00036 µM
C[C@]12C[C@H](c3ccc(CC(=O)O)cc3)C3=C4CCC(=O)C=C4CC[C@H]3[C@@H]1CC[C@@]2(O)C(F)(F)C(F)(F)F — IC50 (Progesterone receptor (PGR, Homo sapiens, UniProt P06401); reporter gene, antagonist, luciferase): 0.014 µM
O=C(O)c1ccc(Nc2nc(-c3ccc(Cl)c(Cl)c3)cs2)cc1 — IC50 (Capsid scaffolding protein, protease domain (assemblin) (Human cytomegalovirus, UniProt P16753); protease activity, inhibitor; added: ACC tetrapeptide substrate): 47.5 µM
C[C@@H]1CCN(c2nc3ccccc3o2)CCN1S(=O)(=O)c1ccc(C(C)(C)C)cc1 — IC50 (Orexin receptor type 2 (HCRTR2, Homo sapiens, UniProt O43614); calcium signal, antagonist, fluorescence): 1.77 µM
CCCCNC(=O)C1CCN(c2ccc3nnc(-c4cccc(C)c4)n3n2)CC1 — IC50 (CatSper channel complex; calcium influx, inhibitor, FLIPR; human sperm; added: 3 µM progesterone): > 100 µM
COc1ccc(CNCCCCCCC(=O)NO)cc1OC — IC50 (Histone deacetylase 8 (HDAC8, Homo sapiens, UniProt Q9BY41); enzyme activity, inhibitor, fluorescence): 1.8 µM
CC1(C)C2CC3C(c4ccccc4)c4c(O)c(C=O)c(O)c(C=O)c4OC3(C)C1C2 (single isomer, unassigned; (+)) — IC50 (Lysophosphatidylserine lipase ABHD12 (Homo sapiens, UniProt Q8N2K0, K373R); lysophosphatidylserine hydrolysis, inhibitor, LC-MS; HEK293T cell lysate; mutant): > 100 µM

Repeated from above:
CC12CC3CC(C)(C1)CC(NC(=O)Nc1ccc(C(=O)N4CCCC(C(=O)NC5CC5)C4)cc1)(C3)C2 (centres unmarked) — IC50 (Bifunctional epoxide hydrolase 2 (EPHX2, Homo sapiens, UniProt P34913); enzyme activity, inhibitor): 0.00036 µM
COc1ccc(CNCCCCCCC(=O)NO)cc1OC — IC50 (Histone deacetylase 8 (HDAC8, Homo sapiens, UniProt Q9BY41); enzyme activity, inhibitor, fluorescence): 1.8 µM
